Measured values pooled from the literature.
Each numbered part is a random draw from the data of one study; scales do not carry over between parts.

Block 1
Target: Interferon regulatory factor 5, full length, phosphomimetic (IRF5, Homo sapiens, UniProt Q13568-2, residues 1-514, S451D/S453D/S456D/S462D)
Method: protein-binding microarray
Form: double-stranded DNA, one strand shown
Sample: in vitro
Tested at: 940 nM top
Setting: 60-bp whole probe
With: salmon DNA 0.4 mg/ml
Baseline: random background probes
Reading: higher = stronger binding
Quantity: fitted relative affinity
All sequences stand within: GCCTAGCAC … GTCTTGATTCGCTTGACGCTGCTG
TTCGAACTGGGGTATCGATTAGTGCTA: 3.14 z-score
GACGGTCTCCATATCCTGACGTGCTAG: 0.179 z-score
GACGGACTGGACATTGGGGACGTGCTA: -0.477 z-score
GATGGCAGTGGAAATTTTACGTGCTAG: -0.647 z-score
TTAGGTATCGGTCTCGGTTGGTGCTAG: 10 z-score
TCATCTTCCTTCATGGCACTGTGCTAG: 1.07 z-score
TTAGATATGAGTATCGATTAGTGCTAG: 4.24 z-score
GACGGACTGGGTCTCCGGACGTGCTAG: -0.649 z-score
GACGGTTTCGACTATCGGGTCGTGCTA: 9.37 z-score
TACAATTTGCTTTAGTCATTGTGCTAG: -0.36 z-score

Block 2
Target: Sal-like protein 4, full length isoform A (SALL4, Homo sapiens, UniProt Q9UJQ4, residues 1-1053)
Chain of UniProt Q9UJQ4 (whole entry, looked up): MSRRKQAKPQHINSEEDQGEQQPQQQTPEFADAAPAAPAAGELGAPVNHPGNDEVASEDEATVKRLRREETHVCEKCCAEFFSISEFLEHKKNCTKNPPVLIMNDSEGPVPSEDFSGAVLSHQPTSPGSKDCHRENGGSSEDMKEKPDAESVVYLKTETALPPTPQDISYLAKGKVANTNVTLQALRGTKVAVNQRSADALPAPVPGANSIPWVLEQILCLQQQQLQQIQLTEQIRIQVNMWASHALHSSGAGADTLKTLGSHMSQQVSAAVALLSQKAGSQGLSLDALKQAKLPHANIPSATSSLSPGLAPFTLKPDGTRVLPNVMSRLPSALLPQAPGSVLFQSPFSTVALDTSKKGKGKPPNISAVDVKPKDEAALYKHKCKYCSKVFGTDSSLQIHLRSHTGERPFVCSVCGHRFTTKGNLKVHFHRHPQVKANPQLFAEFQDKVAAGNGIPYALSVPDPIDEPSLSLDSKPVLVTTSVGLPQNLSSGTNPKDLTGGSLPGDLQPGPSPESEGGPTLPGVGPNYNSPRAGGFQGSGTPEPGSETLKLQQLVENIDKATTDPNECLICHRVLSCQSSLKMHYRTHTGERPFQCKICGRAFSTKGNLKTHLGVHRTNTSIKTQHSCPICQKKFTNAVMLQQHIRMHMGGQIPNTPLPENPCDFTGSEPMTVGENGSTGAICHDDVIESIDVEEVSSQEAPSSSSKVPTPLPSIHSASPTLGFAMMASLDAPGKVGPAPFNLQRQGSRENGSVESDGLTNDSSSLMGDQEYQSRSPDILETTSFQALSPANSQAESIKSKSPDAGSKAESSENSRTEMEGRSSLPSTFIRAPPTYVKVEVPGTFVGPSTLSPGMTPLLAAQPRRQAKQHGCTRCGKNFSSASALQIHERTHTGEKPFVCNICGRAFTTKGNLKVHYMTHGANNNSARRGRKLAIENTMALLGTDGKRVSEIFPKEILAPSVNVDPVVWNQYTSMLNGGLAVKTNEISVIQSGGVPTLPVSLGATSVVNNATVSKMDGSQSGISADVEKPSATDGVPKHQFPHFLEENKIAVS
Method: universal PBM
Form: double-stranded DNA, one strand shown
Sample: in vitro
Tested at: 600 nM
Setting: 8-mer, flanks averaged, mean of replicates
Reading: higher = stronger binding
Quantity: E-score
AGTATTCC: 0.149
AAAGCGGG: -0.111
CGTAATGA: 0.0933
AAGCTAAA: 0.092
AGCCACCG: -0.224
GCGTGGAA: -0.156
CGGGTCGA: -0.342
AAGGGGGA: -0.163
CCAACATA: 0.226

Block 3
Target: RNA binding protein fox-1 homolog 2, RRM domain, GST-SBP tag (RBFOX2, Homo sapiens, UniProt O43251-10, residues 100-194)
Method: RNA Bind-n-Seq
Form: RNA
Sample: in vitro
Tested at: 365 nM
Setting: natural RNA segment, single round, ends assumed
Baseline: no-protein control
Reading: higher = stronger binding
Quantity: RBNS enrichment (R)
All sequences stand within: GGGAGUUCUACAGUCCGACGAUC … UGGAAUUCUCGGGUGCCAA
Residues (chain): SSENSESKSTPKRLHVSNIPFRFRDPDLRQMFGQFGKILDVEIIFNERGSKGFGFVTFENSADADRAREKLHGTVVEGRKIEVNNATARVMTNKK
GGGCAAUGGUGUCUGUCCAGCCCCUCCCUCUGUCCCUGUGCUCCAAGCUGCCCCCGGCUGCAGCCCAGGCCAUGGACAUGUGCACCAGUAUGUACCUGCAGGCAUGGGGG: 0.489
UGCCCAUCAUGGCAUUUUCACAUGUCCCAUAUGCCCCUCCUGUCUUAUUCCACUGCUUCUCCCAGCAUUCUGGUGCCUCCAAGCCAUCCCCUCCCACCACCAGCUCUAAG: 0.979
CUUUCGCCUUCCCUGGGGGAGAAACCCUCUUGGCUGAUGGCUUUUCCCCGGAAUUAUCAAACAGCCACCGGGUGACUUUCUGGCUUCCAGAUCCAUCUGCCUGAGACCCC: 0.233
AGGAGCCCCGAAGCUUUCCCCGACGUUCCUUUAACACAGAUUUCAUUGCAGCAGCCGCGCCCAGCCCAGGGAAGAAAGGAUGGGAAACCCCCGAGGUCUUCCUUGAACAU: 0.63
UAGCAGAAGAUUUAGCCAUGUCCUUCCCCUCACUUGUGUGAGUGGCCCCUUCUGAAUCUCUCCAGCAGCCAGAGGCACGUGAGAAGCAGAAAGAGCUGGUAAAUAAAGCC: 0.434
CUUUAUCUCAUAAUCUUCCAGUACAUAUGCUCUCAGUUGGGAUAGCAGUUCAUUUCCAUUAGGCAGACGUAUAAACUAAGGAAUGUUAGUCUGCAGUAUUCAUUUUAAAA: 0.83
AUUCCUUUUGUAGAUGAGUAUGAUUUUGAAACUGAAGAAAUUAAUACAGAGGCAAGAUUUUAGGAGUUUGAAUUGGUUCUUGUUUGUUCUCAUUCUACAUAUAAUUUUGU: 1.96

Single results of other studies
PhoQ, residues 284 288 289 292 302 303 SCKMEA  fold induction (PhoP, residues 12 14 15 18 19 YHFSH (Escherichia coli, UniProt P23836); Sort-seq, measured: YFP reporter; E. coli; PhoQ-PhoP variant library, with: 10 µM Mg2+; baseline: high Mg2+ state, higher = stronger signaling): 1.62
